Experimental data from different studies.
Protocols differ between the studies behind these lines. Values joined by “and” are separate records of one study, mostly repeats; a detail may differ. Numbers after ± are the reported error.

O=C(O)CNC(=O)Cc1ccccc1 — sarcomere length (ventricular cardiomyocytes, C57BL/6 mouse; dose not given, 0.024 s): 1.72 µm
CO[C@@H](C(=O)N1Cc2n[nH]c(NC(=O)c3ccc(N4CCN(C)CC4)cc3)c2C1)c1ccccc1 — tumour regression (RECIST; human; concentration not given): 27%
N#Cc1ccc2c(-c3ccncc3)c(-c3ccc(F)cc3)nn2c1 — log2 fold change (kinase binding, competitor, MIB/MS competition, refers to: SSK2; Candida albicans cell lysate; 1 µM; reference: DMSO): -0.0627
COc1ccc2c(c1)CC[C@@H]1[C@@H]2CC[C@]2(C)[C@@H](NCCCCCCN3C(=O)C=CC3=O)CC[C@@H]12 — GFAP-positive area (astrogliosis, immunostaining; humanized UT mouse, subarachnoid haemorrhage model, meninges; dose not given, day 1; reference: total area): 0.49%
[Cl-].[Cl-].[Pt+2].[Ru+2].c1ccc(-c2nc3ccccc3nc2-c2ccccn2)nc1.c1cnc2c(c1)ccc1cccnc12.c1cnc2c(c1)ccc1cccnc12 — activation free energy (chloride substitution, UV-vis kinetics; aqueous buffer; pH 7.2, 35 °C, second substitution step, added: guanosine 5'-monophosphate): 20.6 ± 0.956 kcal/mol
Cn1cc(-c2ccc(-c3cncc(Cl)c3N3CCC4(CCNC4=O)CC3)cc2)cn1 — log2 fold change (COLO 205; gene expression, microarray, refers to: CRYBB1 mRNA; concentration not given, 6 h; reference: untreated cells): -2.98
Cc1n[nH]c2ccc(-c3cc(OC[C@@H](N)Cc4ccccc4)cnc3-c3ccoc3)cc12 — log2 fold change (kinase binding, competitor, MIB/MS competition, refers to: CMK1; Candida albicans cell lysate; 1 µM; reference: DMSO): 0.154
Cc1c(Cl)c(C)[n+]([O-])c(Cl)c1-c1noc(-c2cc(O)c(O)c([N+](=O)[O-])c2)n1 — Vmax (sulfation, substrate; human intestinal S9): 1.36 ± 0.039 pmol/min/mg protein
CC(C)C[C@H](NC(=O)C[C@H](O)[C@H](CC(C)C)NC(=O)[C@H](Cc1c[nH]cn1)NC(=O)CNC(=O)[C@@H](NC(=O)[C@H](C)NC(=O)[C@H](Cc1c[nH]c2ccccc12)NC(=O)[C@H](CCC(N)=O)NC(=O)[C@@H](Cc1ccccc1)NC(=O)COCCOCCNC(=O)CCC(C(=O)O)N1CCN(CC(=O)O)CCN(CC(=O)O)CCN(CC(=O)O)CC1)C(C)C)C(N)=O (stereo partly drawn) [lutetium-177 labelled] — tissue uptake (BALB/c nu/nu mice, brain; intravenous, 100 pmol, 1 h, added: PA 300 µg): 0.02 ± 0.01 %ID/g
O=C(NS(=O)(=O)C1CC1)c1cc2ccccc2n1Cc1ccc(C2CC2)c2ccccc12 — serum uric acid decrease (mouse, acute hyperuricaemia model, serum; oral, 2 mg/kg; reference: vehicle model): 74%
NC(=O)c1cnc2[nH]ccc2c1N[C@@H]1[C@@H]2CC3C[C@H]1C[C@@](O)(C3)C2 — change from baseline (flow cytometry, refers to: CD8+ effector T cells; Japanese healthy subjects, peripheral blood; oral, 100 mg twice daily, day 4): 0.57%
CN(C)C(=O)c1cc2cnc(Nc3ccc(N4CCNCC4)cn3)nc2n1C1CCCC1 — normalized enrichment score (RNA-seq GSEA, refers to: HALLMARK_MITOTIC_SPINDLE; MB002 tumour; concentration not given, in vivo; reference: vehicle, direction not given): 1.78
NCc1cc2c(cc1F)C(=O)N(C1CCC(=O)NC1=O)C2 (stereo not drawn) — degradation (degrader, Western blot, refers to: GSPT1; cynomolgus monkey, PBMC; oral, 0.1 mg/kg, 6 h): ~80%
C[C@@H](NC(=O)N1C(=O)[C@H](Cc2ccnc(N)c2)[C@H]1C(=O)O)C1CCCCC1 — aPTT AUEC (human; iv infusion, 1.0 mg/kg/h, 24 h): 7240 h·s
O=C(NS(=O)(=O)c1ccccc1)c1cc2ccccc2n1Cc1ccc(Br)c2ccccc12 — serum uric acid (mouse, acute hyperuricemia model; dose not given): 636 µM and 214 µM and 285 µM and 583 µM and 226 µM and 291 µM
CC(=O)O[C@H]1C(=O)[C@@]2(C)[C@H]([C@H](OC(=O)c3ccccc3)[C@]3(O)C[C@H](OC(=O)[C@H](O)[C@@H](NC(=O)c4ccccc4)c4ccccc4)C(C)=C1C3(C)C)[C@]1(OC(C)=O)CO[C@@H]1C[C@@H]2O — tumour volume (rat, DMBA-induced mammary tumour, mammary tumour; dose not given, day 0): 0.05 ± 0.01 cm3
COc1cc2c(NC3CCN(C(C)C)CC3)nc(C3CCCCC3)nc2cc1OCCCN1CCCC1 — viability (OCI-Ly1; 0.5 µM, 120 h): 143%
CC(C)NCC(O)c1ccc(O)c(O)c1 (stereo not drawn) — sarcomere length (ventricular cardiomyocytes, C57BL/6 mouse; dose not given, 0.776 s): 1.72 µm
c1ccc(-c2n[nH]cc2-c2ccnc3ccccc23)nc1 — log2 fold change (kinase binding, competitor, MIB/MS competition, refers to: TOR1; Candida albicans cell lysate; 1 µM; reference: DMSO): 1.01
COc1cc2cc(-c3ccc(CC(=O)Nc4cc(C(C)(C)C(F)(F)F)no4)cn3)cnc2cc1OC — disease control rate (RECIST v1.1; RET-altered advanced solid tumour patients; oral, 150 mg once daily, phase I): 38%
Cn1cc([C@H]2C[C@H]3CSC(N)=N[C@@]3(c3ccc(F)cc3F)CO2)cn1 — Aβ40 level (refers to: Aβx-40; Mus musculus wild-type, cerebrospinal fluid; subcutaneous, 10 mg/kg, 1 h): 1.5 ng/mL
Cc1cn([C@@H]2O[C@H](CO)[C@@H](O)[C@H]2O)c(=O)nc1N — viability (OCI-Ly1; 0.5 µM, 120 h): 97.3%
O=C(O[C@@H]1[C@@H](O)[C@H](Oc2cc(O)c3c(c2)O[C@H](c2ccccc2)CC3=O)O[C@@H]2COC(=O)c3cc(O)c(O)c(O)c3-c3c(cc(O)c(O)c3O)C(=O)O[C@@H]12)c1cc(O)c(O)c(O)c1 — fibrin formation (laser-injury thrombosis model; mouse, cremaster arterioles; intravenous infusion, dose not given; reference: control): 21 ± 3.7%
CSCCNc1nc(SCCC(F)(F)F)nc2c1ncn2[C@@H]1O[C@H](COP(=O)(O)OP(=O)(O)C(Cl)(Cl)P(=O)(O)O)[C@@H](O)[C@H]1O — high residual platelet reactivity (ADP-induced platelet aggregation, light transmittance aggregometry; human patients, platelet-rich plasma; dose not given, 2 h, aggregation above 59%, added: ADP 20 µM; reference: patients): 50%
CC(C)[C@H](C(=O)Nc1ccc(C(=O)NO)cc1)c1ccccc1 — tumour volume change (volumetric MRI; human, left posterior fossa tumour; dose not given, day 224; reference: baseline): -23.8%
COc1ncc(-c2nc3c(n2C(C)C)[C@H](c2ccc(Cl)cc2)N(c2cc(Cl)cn(C)c2=O)C3=O)c(OC)n1 — best overall response (International Working Group criteria; human acute myeloid leukemia patients; oral, 45 mg, response Unknown, low-dose, recommended dose for expansion): 3.7%
C[C@H]1C[C@H]2CSC(N)=N[C@@]2(c2nc(NC(=O)c3ccc(OC(F)F)cn3)cs2)CO1 — percent change from baseline (refers to: total Aβ; healthy adults, plasma; 5 mg once daily, day 10; reference: placebo): -31.9%
C[C@H]1O[C@@H](O[C@H]2CC[C@@]3(C)[C@@H](CC[C@]4(C)[C@@H]3C=C[C@]35OC[C@@]6(CCC(C)(C)C[C@H]63)[C@@H](O)C[C@]54C)[C@]2(C)CO)[C@H](O)[C@@H](O[C@@H]2O[C@H](CO)[C@@H](O)[C@H](O)[C@H]2O)[C@H]1O — γ-GT activity (chronic-plus-binge ethanol mice, plasma; oral, 5 mg/kg/day for 7 d, 168 h): 36.9 U/L and 38.9 U/L and 30.9 U/L and 36.2 U/L and 26.1 U/L and 33.9 U/L and 34 U/L and 29.9 U/L
C[C@H](Oc1ccc(Br)cc1-c1ccon1)C(=O)O — difference from placebo (mean CMAP amplitude; human, tibialis anterior muscle; 1200 mg, SAD): 0.137 mV
Cn1cc(Nc2nc(N)nc(-c3cccc(-n4ccc5cc(C6CC6)cc(F)c5c4=O)c3CO)n2)cn1 — inhibition (CD63 upregulation, refers to: CD63; basophils (CD123+ HLA-DR-), healthy humans, whole blood ex vivo; 150 mg twice daily (multiple dose), 336 h, added: anti-IgE): 67.6%
Cc1cc(Nc2ncc(Cl)c(Nc3ccccc3S(=O)(=O)C(C)C)n2)c(OC(C)C)cc1C1CCNCC1 — median overall survival (patients with advanced solid tumours; dose not given): 10.2 months
CN[C@@H]1COc2c(S(=O)(=O)NC(=O)Nc3c4c(cc5c3CCC5)CCC4)cnn2C1 — inhibition (refers to: IL-1β; human participants, whole blood ex vivo; 150 mg single dose, 1 h, added: LPS/ATP; reference: baseline): 92.5%
CS(=O)(=O)NC(=O)c1cc2ccccc2n1Cc1ccc(Br)c2ccccc12 — serum uric acid (mouse, acute hyperuricemia model; dose not given): 467 µM and 408 µM and 638 µM and 567 µM and 523 µM and 404 µM
O=C(OC(C(F)(F)F)C(F)(F)F)N1CCN(Cc2cccc(Oc3ccccc3)c2)CC1 — tracer distribution volume (PET; rhesus monkey, cerebellum; intravenous, 0.3 mg/kg, pretreatment, added: [18F]T-401): 1.32 mL/cm3
CC(C)c1c(C(=O)Nc2ccccc2)c(-c2ccccc2)c(-c2ccc(F)cc2)n1CC[C@@H](O)C[C@@H](O)CC(=O)O — plasma PCSK9 change (ELISA; cynomolgus monkey, female, plasma; 40 mg/kg or 25 mg/kg, day 176; reference: pretreatment): 8.4%
c1ccc(-c2cc(-c3ccccc3)n(Cn3ccnc3)n2)cc1 — wound size (rat, STZ-nicotinamide diabetic; 75 mg/kg, 360 h, full-thickness excision wound): 13.3 mm
CO[C@H]1CC[C@H](N2C(=O)CNc3ncc(-c4ccc(C(C)(C)O)nc4)nc32)CC1 — pAKT change from baseline (flow cytometry; stimulated monocytes, human, blood; 30 mg single dose, 5 h, mean; reference: baseline): -46.3%
N#Cc1ccc2c(c1)[C@H]1CCCN(C(=O)c3ccc4[nH]cnc4c3)[C@H]1C2 — change from baseline (refers to: androstenedione; human male, Phase II trial; oral, 240 mg once daily, HPA axis, mean): 3.82 nmol/L
[Mn+2] — CD18-low cell fraction (flow cytometry; CD4-low T cells from PBMC, BALB/c mouse; dose not given; reference: no Mn2+): 56.6 and 83 and 66.1 and 77 and 77.2 and 71 and 79.5 and 64.5
C=CCn1c(=O)c2cnc(Nc3ccc(N4CCN(C)CC4)cc3)nc2n1-c1ccc2c(n1)[C@@](O)(CC)CC2 — tumour volume (BALB/c nude mouse, LoVo xenograft; oral, 80 mg/kg once daily, 5 d on 2 d off ×3, day 24; reference: vehicle): 74.5%
O=C(NS(=O)(=O)c1ccc(Cl)s1)c1cc2ccccc2n1Cc1ccc(Br)c2ccccc12 — serum uric acid (mouse, acute hyperuricemia model; dose not given): 404 µM and 303 µM and 410 µM and 339 µM and 440 µM and 392 µM and 505 µM
OC(CCN1CCCCC1)(c1ccccc1)C1CC2C=CC1C2 (stereo not drawn) — power, Delta EEG, Pz-O1 (resting-state EEG; healthy elderly humans; oral, 4 mg, eyes closed, LS mean): 9.1 µV²

Repeated from above:
O=C(OC(C(F)(F)F)C(F)(F)F)N1CCN(Cc2cccc(Oc3ccccc3)c2)CC1 — tracer distribution volume (PET; rhesus monkey, cerebellum; intravenous, 0.3 mg/kg, pretreatment, added: [18F]T-401): 1.32 mL/cm3
CS(=O)(=O)NC(=O)c1cc2ccccc2n1Cc1ccc(Br)c2ccccc12 — serum uric acid (mouse, acute hyperuricemia model; dose not given): 467 µM and 408 µM and 638 µM and 567 µM and 523 µM and 404 µM
CSCCNc1nc(SCCC(F)(F)F)nc2c1ncn2[C@@H]1O[C@H](COP(=O)(O)OP(=O)(O)C(Cl)(Cl)P(=O)(O)O)[C@@H](O)[C@H]1O — high residual platelet reactivity (ADP-induced platelet aggregation, light transmittance aggregometry; human patients, platelet-rich plasma; dose not given, 2 h, aggregation above 59%, added: ADP 20 µM; reference: patients): 50%
COc1ncc(-c2nc3c(n2C(C)C)[C@H](c2ccc(Cl)cc2)N(c2cc(Cl)cn(C)c2=O)C3=O)c(OC)n1 — best overall response (International Working Group criteria; human acute myeloid leukemia patients; oral, 45 mg, response Unknown, low-dose, recommended dose for expansion): 3.7%
